Measured values from different studies.
Each numbered part is a random draw from the data of one study; scales do not carry over between parts. Several values in a cell are separate wells, animals, samples, runs or records.
Chain of UniProt P41595 (whole entry, looked up): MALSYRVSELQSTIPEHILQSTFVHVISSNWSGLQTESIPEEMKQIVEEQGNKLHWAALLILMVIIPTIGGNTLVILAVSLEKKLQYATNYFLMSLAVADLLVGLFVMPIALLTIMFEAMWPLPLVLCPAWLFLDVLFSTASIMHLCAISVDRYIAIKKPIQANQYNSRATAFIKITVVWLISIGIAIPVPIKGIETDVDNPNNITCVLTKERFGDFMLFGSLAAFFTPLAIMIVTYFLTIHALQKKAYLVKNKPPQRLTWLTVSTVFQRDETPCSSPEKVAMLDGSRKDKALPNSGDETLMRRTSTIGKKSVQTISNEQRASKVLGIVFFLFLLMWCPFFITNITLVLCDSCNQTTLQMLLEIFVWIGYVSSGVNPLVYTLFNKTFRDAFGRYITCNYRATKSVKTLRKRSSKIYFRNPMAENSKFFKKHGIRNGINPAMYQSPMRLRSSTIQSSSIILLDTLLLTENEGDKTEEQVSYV

Sample 1
Target: Myosin light chain kinase, smooth muscle (MYLK, Homo sapiens, UniProt Q15746)
Chain of UniProt Q15746 (whole entry, looked up): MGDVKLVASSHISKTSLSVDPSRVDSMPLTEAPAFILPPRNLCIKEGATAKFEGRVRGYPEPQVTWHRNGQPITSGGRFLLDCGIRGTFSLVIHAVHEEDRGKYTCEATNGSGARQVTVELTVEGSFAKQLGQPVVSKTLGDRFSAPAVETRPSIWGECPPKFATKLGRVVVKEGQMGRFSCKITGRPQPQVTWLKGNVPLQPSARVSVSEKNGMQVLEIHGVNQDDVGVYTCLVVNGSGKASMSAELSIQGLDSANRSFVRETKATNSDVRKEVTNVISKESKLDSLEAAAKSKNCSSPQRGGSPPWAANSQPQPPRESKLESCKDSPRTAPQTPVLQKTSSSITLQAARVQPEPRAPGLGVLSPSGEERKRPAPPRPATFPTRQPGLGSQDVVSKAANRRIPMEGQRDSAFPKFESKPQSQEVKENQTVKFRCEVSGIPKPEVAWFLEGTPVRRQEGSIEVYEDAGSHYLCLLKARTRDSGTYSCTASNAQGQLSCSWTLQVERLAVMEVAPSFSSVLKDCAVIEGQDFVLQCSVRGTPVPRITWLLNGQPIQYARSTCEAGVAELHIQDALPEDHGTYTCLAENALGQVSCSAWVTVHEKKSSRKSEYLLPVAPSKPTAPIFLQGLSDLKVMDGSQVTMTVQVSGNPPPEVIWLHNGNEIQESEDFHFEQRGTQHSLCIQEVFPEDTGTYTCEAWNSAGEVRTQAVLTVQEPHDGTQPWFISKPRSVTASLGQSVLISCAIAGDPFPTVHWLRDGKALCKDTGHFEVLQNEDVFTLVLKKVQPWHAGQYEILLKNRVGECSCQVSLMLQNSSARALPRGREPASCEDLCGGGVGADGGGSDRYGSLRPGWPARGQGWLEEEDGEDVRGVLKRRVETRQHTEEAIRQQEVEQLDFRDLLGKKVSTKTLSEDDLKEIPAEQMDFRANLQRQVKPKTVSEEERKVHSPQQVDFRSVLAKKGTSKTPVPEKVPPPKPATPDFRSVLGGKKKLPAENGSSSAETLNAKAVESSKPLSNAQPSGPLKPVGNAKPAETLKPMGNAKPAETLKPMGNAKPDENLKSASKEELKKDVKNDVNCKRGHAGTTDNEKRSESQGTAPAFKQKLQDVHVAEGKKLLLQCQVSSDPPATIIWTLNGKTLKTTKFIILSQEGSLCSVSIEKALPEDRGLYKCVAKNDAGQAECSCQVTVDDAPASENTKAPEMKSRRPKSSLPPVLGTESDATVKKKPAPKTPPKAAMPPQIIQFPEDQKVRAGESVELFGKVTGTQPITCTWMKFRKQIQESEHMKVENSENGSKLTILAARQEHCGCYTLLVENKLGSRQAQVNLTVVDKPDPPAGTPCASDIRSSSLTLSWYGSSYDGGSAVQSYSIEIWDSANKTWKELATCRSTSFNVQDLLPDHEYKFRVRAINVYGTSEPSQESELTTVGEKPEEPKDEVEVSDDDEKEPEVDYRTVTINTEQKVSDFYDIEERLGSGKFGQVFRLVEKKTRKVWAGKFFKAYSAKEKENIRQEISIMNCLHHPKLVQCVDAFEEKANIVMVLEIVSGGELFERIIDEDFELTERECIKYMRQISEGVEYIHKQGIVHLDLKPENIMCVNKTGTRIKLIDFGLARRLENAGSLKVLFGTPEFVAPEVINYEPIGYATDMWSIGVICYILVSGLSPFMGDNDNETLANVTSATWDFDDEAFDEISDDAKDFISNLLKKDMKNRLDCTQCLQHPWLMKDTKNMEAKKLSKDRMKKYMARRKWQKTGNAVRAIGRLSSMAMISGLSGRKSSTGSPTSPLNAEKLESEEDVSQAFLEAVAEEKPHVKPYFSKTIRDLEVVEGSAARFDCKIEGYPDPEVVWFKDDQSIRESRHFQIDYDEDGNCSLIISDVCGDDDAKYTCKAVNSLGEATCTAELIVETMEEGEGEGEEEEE
Read-out: enzyme activity
Mode: inhibitor
Tested at: 0.5 µM
Reference: control
Endpoint: remaining activity
CC(C)[C@H](CO)Nc1nc(Nc2cc(N)cc(Cl)c2)c2ncn(C(C)C)c2n1: 81.3%
NCCNc1ncc(C(N)=O)c(Nc2cccc(C(F)(F)F)c2)n1: 96.7%
COc1cc2nccc(Oc3ccc(NC(=S)NC(=O)c4ccccc4C)cc3)c2cc1OC: 104%
OCC(O)CCON=C1C(c2c(O)[nH]c3ccccc23)=Nc2ccccc21 (stereo not drawn): 32.3%
CN(C)c1ccc(C=C2C(=O)Nc3ccccc32)cc1: 90.5%
N#CC(C#N)=C(N)/C(C#N)=C/c1ccc(O)cc1: 101%
CO[C@H]1C[C@@H]2CC[C@@H](C)[C@@](O)(O2)C(=O)C(=O)N2CCCC[C@H]2C(=O)O[C@H]([C@H](C)C[C@@H]2CC[C@@H](O)[C@H](OC)C2)CC(=O)[C@H](C)/C=C(\C)[C@@H](O)[C@@H](OC)C(=O)[C@H](C)C[C@H](C)/C=C/C=C/C=C/1C: 102%
O=C1NC(=O)C(c2cn(CCCO)c3ncccc23)=C1c1cnccn1: 74%
COc1ccc(C(=O)Nc2sc3c(c2C(N)=O)CCCC3)cc1OC: 41.2%
O=C(O)c1ccc2c3c1cccc3c(=O)n1c3ccccc3nc21: 89.8%
O=c1c2ccccc2[nH]c(=S)n1CCN1CCC(=C(c2ccc(F)cc2)c2ccc(F)cc2)CC1: 96.2%
COc1ccc(CNC(=O)Nc2ncc([N+](=O)[O-])s2)cc1: 94.1%
Cn1sc(=O)n(Cc2ccccc2)c1=O: 94.5%
Nc1ncnc2n[nH]c(Nc3ccc(F)cc3)c12: 94.7%
C#Cc1cccc(Nc2ncnc3cc(OCCOC)c(OCCOC)cc23)c1: 84.7%
Cn1c2ccccc2c2c3c(c4c5ccccc5n(CCC#N)c4c21)CNC3=O: 24.6%

Sample 2
Target: DNA polymerase theta, ATPase domain (POLQ, Homo sapiens, UniProt O75417)
Chain of UniProt O75417 (whole entry, unmodified, looked up): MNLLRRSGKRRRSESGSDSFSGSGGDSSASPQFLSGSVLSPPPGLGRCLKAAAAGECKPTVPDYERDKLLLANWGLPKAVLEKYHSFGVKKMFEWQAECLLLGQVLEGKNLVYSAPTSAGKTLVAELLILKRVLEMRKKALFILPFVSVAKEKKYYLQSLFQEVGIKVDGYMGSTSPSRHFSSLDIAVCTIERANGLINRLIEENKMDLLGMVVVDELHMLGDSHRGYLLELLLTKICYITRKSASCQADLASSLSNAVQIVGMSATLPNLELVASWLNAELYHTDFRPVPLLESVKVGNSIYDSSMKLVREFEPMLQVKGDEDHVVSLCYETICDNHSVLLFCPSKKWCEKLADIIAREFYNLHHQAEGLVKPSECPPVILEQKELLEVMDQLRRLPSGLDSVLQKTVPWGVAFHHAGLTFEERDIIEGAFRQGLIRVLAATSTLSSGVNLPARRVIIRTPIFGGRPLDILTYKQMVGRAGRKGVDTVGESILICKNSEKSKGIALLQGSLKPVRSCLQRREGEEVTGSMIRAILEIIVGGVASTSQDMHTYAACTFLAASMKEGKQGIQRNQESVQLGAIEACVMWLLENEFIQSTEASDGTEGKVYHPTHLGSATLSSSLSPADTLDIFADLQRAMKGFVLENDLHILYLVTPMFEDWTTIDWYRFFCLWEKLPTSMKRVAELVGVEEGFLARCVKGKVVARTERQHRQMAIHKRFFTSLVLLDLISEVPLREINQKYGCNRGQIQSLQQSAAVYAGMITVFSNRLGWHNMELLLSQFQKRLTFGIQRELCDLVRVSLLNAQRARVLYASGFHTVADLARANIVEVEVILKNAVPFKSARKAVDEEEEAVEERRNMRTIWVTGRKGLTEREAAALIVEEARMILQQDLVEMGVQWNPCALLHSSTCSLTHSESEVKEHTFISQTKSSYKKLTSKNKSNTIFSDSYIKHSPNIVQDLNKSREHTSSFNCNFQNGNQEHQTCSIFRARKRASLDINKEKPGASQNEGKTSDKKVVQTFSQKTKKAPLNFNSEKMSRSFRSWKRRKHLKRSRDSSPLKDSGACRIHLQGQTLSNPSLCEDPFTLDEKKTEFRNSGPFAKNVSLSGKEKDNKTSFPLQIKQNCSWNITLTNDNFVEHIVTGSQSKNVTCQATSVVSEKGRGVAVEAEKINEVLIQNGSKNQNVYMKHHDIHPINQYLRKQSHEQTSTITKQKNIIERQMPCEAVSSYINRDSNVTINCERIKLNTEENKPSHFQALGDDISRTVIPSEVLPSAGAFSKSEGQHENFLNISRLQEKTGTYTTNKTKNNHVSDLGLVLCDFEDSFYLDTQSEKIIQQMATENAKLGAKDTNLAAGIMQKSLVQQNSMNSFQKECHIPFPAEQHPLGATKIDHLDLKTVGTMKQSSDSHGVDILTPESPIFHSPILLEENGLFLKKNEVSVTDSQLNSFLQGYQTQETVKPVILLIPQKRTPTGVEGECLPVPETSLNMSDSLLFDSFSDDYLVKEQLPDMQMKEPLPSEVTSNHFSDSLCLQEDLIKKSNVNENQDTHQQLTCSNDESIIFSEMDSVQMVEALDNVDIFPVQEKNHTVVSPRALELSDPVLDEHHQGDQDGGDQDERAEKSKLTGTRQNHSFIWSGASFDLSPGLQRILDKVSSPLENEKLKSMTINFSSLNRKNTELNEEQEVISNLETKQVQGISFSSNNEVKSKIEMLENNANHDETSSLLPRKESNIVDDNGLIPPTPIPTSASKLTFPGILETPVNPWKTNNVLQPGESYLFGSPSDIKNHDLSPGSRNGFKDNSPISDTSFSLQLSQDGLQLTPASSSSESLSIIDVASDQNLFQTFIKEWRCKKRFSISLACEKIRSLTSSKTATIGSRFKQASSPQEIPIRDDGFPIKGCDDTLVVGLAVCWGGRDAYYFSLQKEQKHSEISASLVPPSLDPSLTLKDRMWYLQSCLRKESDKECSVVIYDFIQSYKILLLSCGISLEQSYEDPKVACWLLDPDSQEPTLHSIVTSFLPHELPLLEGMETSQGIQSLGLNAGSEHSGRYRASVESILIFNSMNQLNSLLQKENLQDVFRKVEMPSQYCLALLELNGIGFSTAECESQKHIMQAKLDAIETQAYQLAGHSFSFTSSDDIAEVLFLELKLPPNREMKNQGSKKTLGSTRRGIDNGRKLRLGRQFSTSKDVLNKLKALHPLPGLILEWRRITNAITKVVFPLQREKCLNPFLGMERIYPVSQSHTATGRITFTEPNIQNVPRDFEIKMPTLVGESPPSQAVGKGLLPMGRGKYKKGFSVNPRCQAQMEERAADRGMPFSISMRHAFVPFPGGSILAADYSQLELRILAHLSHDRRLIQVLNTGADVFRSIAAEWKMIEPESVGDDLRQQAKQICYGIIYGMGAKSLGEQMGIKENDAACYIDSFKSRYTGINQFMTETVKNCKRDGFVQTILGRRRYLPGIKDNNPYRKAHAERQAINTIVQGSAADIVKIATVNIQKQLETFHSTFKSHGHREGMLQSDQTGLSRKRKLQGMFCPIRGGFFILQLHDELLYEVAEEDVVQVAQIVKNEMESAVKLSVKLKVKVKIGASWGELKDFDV
Read-out: enzyme activity
Mode: inhibitor
Tested at: 77 µM
Reference: untreated
Endpoint: remaining activity
CCN1CCc2nc(N)oc2CC1: 113%
CC(C)Oc1ccc2c(=O)c(-c3ccccc3)coc2c1: 95.1%
CC(N)C(=O)OC(C)(C)Cc1ccc(Cl)cc1 (racemic): 101%
CCOc1nc2cccc(C(=O)OC(C)OC(=O)OC3CCCCC3)c2n1Cc1ccc(-c2ccccc2-c2nn[nH]n2)cc1 (stereo not drawn): 78%
COc1ccc([C@]2(C#N)CC[C@@H](C(=O)O)CC2)cc1OC1CCCC1: 102%
Nc1nc2[nH]c(=O)cnc2c(=O)[nH]1: 92.4%
Nc1nc(=O)c2nc(CNc3ccc(C(=O)N[C@@H](CCC(=O)O)C(=O)O)cc3)cnc2[nH]1: 101%
Cc1noc(NS(=O)(=O)c2ccc(N)cc2)c1C: 93.4% and 107%

Sample 3
Compound: CNC(=O)c1cc(C(=O)N[C@H]2[C@@H]3COC[C@@H]32)cc2c1O[C@H](CF)[C@H]2c1ccccc1
Tested at: 10 µM
Endpoint: inhibition
HTR1D (Homo sapiens, UniProt P28221); binding, radioligand binding: -5.14%
HRH3 (Homo sapiens, UniProt Q9Y5N1); binding, radioligand binding: -9.57%
HTR2B (Homo sapiens, UniProt P41595); cell-free assay: 28.2%
ADRB1 (Homo sapiens, UniProt P08588); binding, radioligand binding: 6.03%
HTR1E (Homo sapiens, UniProt P28566); cell-free assay: -12.8%
CHRM5 (Homo sapiens, UniProt P08912); binding, radioligand binding: 2.23%
HTR6 (Homo sapiens, UniProt P50406); binding, radioligand binding: 16.8%
DRD4 (Homo sapiens, UniProt P21917); binding, radioligand binding: 81.6%

Mixed results
CC(C)(C)c1cnc(CSc2cnc(NC(=O)C3CCNCC3)s2)o1
viability (HH; trypan blue exclusion; 1 µM, 48 h; reference: untreated): 0.809% and 4.97% and 2.8%

A few entries again (sample 2):
COc1ccc([C@]2(C#N)CC[C@@H](C(=O)O)CC2)cc1OC1CCCC1: 102%
Nc1nc2[nH]c(=O)cnc2c(=O)[nH]1: 92.4%
Nc1nc(=O)c2nc(CNc3ccc(C(=O)N[C@@H](CCC(=O)O)C(=O)O)cc3)cnc2[nH]1: 101%
Cc1noc(NS(=O)(=O)c2ccc(N)cc2)c1C: 93.4% and 107%
